# Experimental data of several laboratories.
# Compare with care: the assays were run in different laboratories.
SMILES,target or system,test,test system,setting,how to read,endpoint,value
N#Cc1c(O)c2c(-c3ccc(-c4ccccc4O)cc3)csc2[nH]c1=O,human coronavirus OC43,virus-induced cell killing,MRC-5,screen,,maximum inhibition,4.99%
CN1CC[C@@H](c2c(O)cc(O)c3c(=O)cc(-c4ccc(C(F)(F)F)cc4Cl)oc23)[C@@H]1CO,,measured: Nausea,AML,"oral, 100 mg, intermittent dosing",,patients with adverse event,0%
O=C(NCCN1CCCCC1)c1ccc(-c2ccc(N3CCSCC3)nc2)cc1,Vero-E6,CellTiter-Glo ATP,,"concentration not given, 72 h, second round 5-point","reference: DMSO 0%, hyamine -100%, more negative, more toxic",cytotoxicity efficacy,-24.5%
CC(=O)c1c(C)c2cnc(Nc3ccc(C4CCN(CCS(C)(=O)=O)CC4)cn3)nc2n(C2CCCC2)c1=O,,,"human, plasma","oral, 25 mg once daily, day 1, single dose",,CL,1110 mL/min
Cc1ccc(-c2cccc(CN3CCCC(c4nc5ccc(C)cc5c(=O)[nH]4)C3)c2)c(C)c1 (centres unmarked),Vero-E6,CellTiter-Glo ATP,,"72 h, second round 5-point","reference: DMSO 0%, hyamine -100%, more negative, more toxic",maximum response,-8.47%
CC(C)(C(=O)c1cccnc1)c1cccnc1,human coronavirus OC43,virus-induced cell killing,MRC-5,screen,,maximum inhibition,19.3%
COc1cc2c(Oc3ccc4[nH]c(C)cc4c3F)ccnc2cc1OCC1(N)CC1,,,paediatric recurrent refractory sarcoma,8 mg/kg,,grade 1 or 2 Hematuria,13.3%
O=C1c2c(O)c(=O)ccn2N([C@@H]2c3ccccc3SCc3c2ccc(F)c3F)[C@@H]2COCCN12,,,"BALB/c mice, plasma","oral, 15 mg/kg baloxavir marboxil, 8 h",,plasma concentration,24 ng/mL
CO[C@H]1C[C@@H]2CC[C@@H](C)[C@@](O)(O2)C(=O)C(=O)N2CCCC[C@H]2C(=O)O[C@H]([C@H](C)C[C@@H]2CC[C@@H](OC(=O)NCCOCCOCCOCCOCCOCCOCCOCCOCCC(=O)N3CCc4cc(Cn5nc(-c6ccc7oc(N)nc7c6)c6c(N)ncnc65)ccc4C3)[C@H](OC)C2)C[C@@H](O)[C@H](C)/C=C(\C)[C@@H](O)[C@@H](OC)C(=O)[C@H](C)C[C@H](C)/C=C/C=C/C=C/1C,,"phase 1 dose escalation, measured: nausea",advanced solid tumour patients,"intravenous, 12 mg weekly, any grade",,TRAE incidence,50%
Cc1ccccc1CN1C(=O)c2ccccc2Sc2ccc(C(=O)NCCCN3CCOCC3)cc21,Vero-E6,CellTiter-Glo ATP,,"concentration not given, 72 h, retest 8-point duplicates","reference: DMSO 0%, hyamine -100%, more negative, more toxic",cytotoxicity efficacy,-14.1%
CC(=O)N1CCC(C(=O)N2CCN3C(=O)c4cc(-c5ccccc5)ccc4NC(=O)C3C2)CC1 (centres unmarked),Salmonella typhimurium,,TA1535,"1581 µg/plate, together with: rat liver S9",,revertants per plate,15.5

# Repeated from above:
SMILES,target or system,test,test system,setting,how to read,endpoint,value
COc1cc2c(Oc3ccc4[nH]c(C)cc4c3F)ccnc2cc1OCC1(N)CC1,,,paediatric recurrent refractory sarcoma,8 mg/kg,,grade 1 or 2 Hematuria,13.3%
